Measurements from different studies.
Numbered parts are unrelated; each lists some results of a single study. Substitutions count along the parent as printed.

Sample 1 — method: RNA Bind-n-Seq; molecule type: RNA; sample: in vitro; tested at: 365 nM; relative to: no-protein control; direction: higher = stronger binding; quantity: RBNS enrichment (R)
Target: RNA binding protein fox-1 homolog 2, RRM domain, GST-SBP tag (RBFOX2, Homo sapiens, UniProt O43251-10, residues 100-194)
Setting: natural RNA segment, single round, ends assumed
Shared flanks, not repeated: GGGAGUUCUACAGUCCGACGAUC … UGGAAUUCUCGGGUGCCAA
Target sequence (chain): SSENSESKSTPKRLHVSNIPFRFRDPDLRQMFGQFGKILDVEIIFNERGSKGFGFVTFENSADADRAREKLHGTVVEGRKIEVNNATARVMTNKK
GUGUACACCCUCACCCGCUGCUGUCCUGCCCUCUGCCAGUGGCCCCAUCAACCCAGGCCUGGUCUUUCCCUCUCCUGCUGAGAACCAGAACCCACCAGGAGCAGCAGAGU: 0.363
CAUACUUGCAAAGGAGAGGAGAGAGUGCUAAAGCCUGGUUCUGACUGAGGGCUCUGCGUCCCUGCAGUAAACAGGUGAGAUCUGCAGCAGGGCAGGGCUGCUUUAACAGG: 0.7
CAUCUUAUUUAAAGGGAUACUUUUGUAAAAGUGAAACCUUGUAUAAAGAAAGAGCAGCCUUUGUUAAUUUACUGUGGAGUUACAACCCGCAUGCUCCCUACUCCCCCACG: 1.55
GCUGAAAUACUGAAUACUGAAAUACUAGAAACCAACAAAACUGGUUUCUAGAAUUCUCCAGGGAUUUGGGCUUGGGAAACUUGGUAAGAAUAGUUUUUAUUUUUGAACAU: 0.515
UCUAACCUGAAGAUGCUGAGGAAGGAGCCUAUUGGUGCAACCUAGGUUGGUGAUCCAUUGGGUGGAUCAGGACGGAACUCUGUGUCCCCAGGUCUCAGGAGUGCCAUCCC: 0.437
CUGCUGUUCCUUGGUCUCUAAUCACCUGAGCUGGGUAAAGGGGAUUCUGGGAGUUGAGAGCUCUGCCAGGGUGAGAUGUUUCCUGAAGAGAGGUUCCCCACCCCUGUAAC: 2.34
GCUGUUCUUCCCAGUCGGUAGGGGAGUGACCCUCUAGGACAGGAAGCUGGGCUGGCCCAGGCCAGUGCCACCUUUGUCCUCUCUUAACUCCAAGAAGUGCAAGUGAACUU: 0.331
AUGGGAACGUGAAAUAUUGGUGCGAUCACUGAACCAAAGGGAUUGUGUUCUGUGACUUUGGUACUUUGUUUUGCAUUUUUGUUUCAUAUUAAAUACUUUCUUUCUGUUUG: 1.3
AAUUCACAGUCGCCGAGUCUACCUAGCUUUCUUGGAAGCAGUCUAGCAAAAUUUCUAUUUGUACGUUCACUAAUUAUCUACAAGGACAAAAUCAGUUGUAUUUACAAAAC: 0.235
CAAGGGGACAGCAAGAGGACCCAGAGCAGGGAAAGGGGUCGGGGAGUCACACAACCAAAGGUAGACUCAGACCAGUUCAGUGCUCCUGGUGGCCAUAGGGACCAGAAAGC: 0.374
UGUCUAGUGGAAGAUGAAUGGACAUGAUCAGUGACACCCCUGCUUGGUUUCUGGCGCUUUCAGAGACGUCUGAGGUUCUUUGCACAGAGACUCCUCAGAUGUGGGAACUC: 0.586
AUAACCCCUGGGUCCAUCUGGCCAUCAGCCUCAGCAGUGAGCAAAGCAAUACCAUACUCAUUUCUAUGUUCCUGUUCCUUCCUCUGCUCCUCCUUUGGAGAAGCAAUAAU: 0.262

Sample 2 — target: CCND3, cyclin fold, Cln2 fusion (human); method: yeast growth competition, sequencing; sample: yeast; setting: weak parent motif; relative to: not given; direction: higher = stronger binding; quantity: normalised enrichment score
Starting sequence: KIF20B docking peptide (human); KRAKRKLYTSEIS
KAAKRKLYTSEIS [R2A]: 0.173
KRAKRKLYTSEIA [S13A]: 0.436
ARAKRKLYTSEIS [K1A]: 0.402
KRAKAKLYTSEIS [R5A]: -0.0609
KRAARKLYTSEIS [K4A]: -0.0241
KRAKRKLYTSEAS [I12A]: 0.0575

Sample 3 — method: protein binding microarray; molecule type: double-stranded DNA, one strand shown; sample: in vitro; tested at: not given; relative to: not given; direction: higher = stronger binding; quantity: E-score
Target: Histone acetyltransferase KAT6A, both winged helices, GST fusion (KAT6A, Homo sapiens, UniProt Q92794, residues 1-181)
Setting: 8-mer, flanks averaged, mean of 2 arrays, mostly near background
Construct (chain): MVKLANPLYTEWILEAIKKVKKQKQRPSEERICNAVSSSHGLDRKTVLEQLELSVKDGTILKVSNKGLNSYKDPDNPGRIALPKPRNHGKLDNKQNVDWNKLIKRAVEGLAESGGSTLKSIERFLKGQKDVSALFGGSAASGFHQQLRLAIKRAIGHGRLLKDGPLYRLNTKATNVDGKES
CAATCTAC: -0.0106
ATACATAG: 0.00766
GCTGCCCA: -0.0275
ATTCATAC: 0.107
AGTTTAAT: 0.0243
CAGGGCGG: 0.119
TAGGCAAA: -0.222
AGGGTCCG: 0.0482
TCATTCGA: -0.0804
ATACATGG: -0.112
ATCTCTTA: -0.091
AGCCAGTA: -0.186
AATCAGCT: -0.191
CACAAAAA: -0.0986
ATAGTAAG: -0.146
AGGCTTCG: -0.0478
CACTTTGG: -0.0734
CCGCTGTC: 0.262
CGACACTC: 0.0618
ACCCAACA: -0.159

Single results of other studies — method: cross-linking MS; sample: cell fractions; with: DSSO; SRSF1: SRSF1 (Homo sapiens, UniProt Q07955)
SF3A2 (Homo sapiens, UniProt Q15428)  cross-linked residues (SF1 (Homo sapiens, UniProt Q15637)): K42 to K306
RBM25 (Homo sapiens, UniProt P49756)  cross-linked residues (SRSF1): K462 to K179
SRSF2 (Homo sapiens, UniProt Q01130)  cross-linked residues (SRSF1): T51 to K30
FAM98A (Homo sapiens, UniProt Q8NCA5)  cross-linked residues (RTRAF (Homo sapiens, UniProt Q9Y224)): K277 to T192

For quick reference, copied from above (sample 2):
KRAKAKLYTSEIS [R5A]: -0.0609
KRAARKLYTSEIS [K4A]: -0.0241
